{"data": "Published values of several laboratories", "EGFR": "Epidermal growth factor receptor (EGFR, Homo sapiens, UniProt P00533)", "note": "Each line is one published result; not all experiments were run side by side. Several values in a cell are separate wells, animals, samples, runs or records."}
{"SMILES": "COc1ccc(O)cc1-c1c[nH]c2ncc(-c3cncc(C(=O)N(C)C)c3)cc12", "target": "EGFR", "test": "binding, competition with immobilised ligand", "setting": "0.2 µM", "inhibition": "6.87%"}
{"SMILES": "C=CC(=O)Nc1cccc(-c2cnc3[nH]cc(C(=O)NC(C)(C)C)c3n2)c1", "target": "EGFR", "test": "kinase activity", "setting": "0.1 µM", "inhibition": "8% and 7%"}
{"SMILES": "COCC(=O)N1CCc2cc(-c3csc(NC(=O)c4cc(OC)cc(OC)c4)n3)ccc21", "target": "EGFR", "test": "EGF radioligand binding", "setting": "10 µM", "inhibition": "14%"}
{"SMILES": "NC(=O)[C@@H](O)C[C@H]1CCc2sc3ncnc(O[C@H]4CC[C@H](N5CCOCC5)CC4)c3c21", "target": "EGFR", "test": "enzyme activity, inhibitor", "setting": "10 µM", "inhibition": "19%"}
{"SMILES": "COc1cc(OC)c(F)c(/C=C/c2cnc3ccn(S(=O)(=O)c4cn(CCF)cn4)c3n2)c1F", "target": "EGFR", "setting": "10 nM", "inhibition": "0%"}
{"SMILES": "O=C(Nc1ccc(Oc2ncnc3[nH]cc(-c4ccccc4)c23)c(F)c1)c1c2n(n(-c3cc(F)ccc3F)c1=O)CCCC2", "target": "EGFR", "test": "enzyme activity, inhibitor", "setting": "0.5 µM", "inhibition": "13%"}
{"SMILES": "Cc1nc2c(F)cc(-c3nc(Nc4ccc(CNC(=O)CCCCCCC(=O)NO)cc4)ncc3F)cc2n1C(C)C", "target": "EGFR", "test": "enzyme activity, inhibitor", "setting": "1 µM", "inhibition": "21%"}
{"SMILES": "CN1CCN(Cc2ccc(-c3ccc(CO[C@H]4CCC[C@@H]4NC(=O)c4cc(-c5cnn(C)c5)cnc4N)cc3)cc2)CC1", "target": "Epidermal growth factor receptor (EGFR, Homo sapiens, UniProt P00533, L858R/T790M)", "test": "enzyme activity, inhibitor", "setting": "0.1 µM", "inhibition": "-2%"}
{"SMILES": "COc1cc(-n2cc3cc(F)cc(C(N)=O)c3n2)cc(Cl)c1C1CC(O)(CCO)Cc2ccccc21 (stereo not shown)", "target": "EGFR", "test": "enzyme activity, inhibitor", "setting": "10 µM", "inhibition": "0.74%"}
{"SMILES": "Cc1cccc(O[C@H]2CCC[C@@H](C(C)CNCc3ccncc3)C2)c1 (relative stereo)", "target": "EGFR", "test": "kinase activity, kinome panel screening", "setting": "1 µM", "inhibition": "9%"}
{"SMILES": "COc1ccc(C(=O)/C=C/c2ccccc2-c2c[nH]c3ccc(C#N)cc23)c(O)c1", "target": "EGFR", "test": "enzyme activity, inhibitor", "setting": "20 µM", "inhibition": "-1%"}
{"SMILES": "Cc1[nH]nc2c1N=C(c1ccccc1Cl)c1cnc(N3CCOCC3)cc1N2", "target": "EGFR", "setting": "10 µM, human off-target panel", "inhibition": "6%"}
{"SMILES": "CCn1cc(C(=O)O)c(=O)c2c(N)c(F)c(NC3CCCCC3)cc21", "target": "EGFR", "test": "kinase activity", "setting": "0.1 µM, together with: ATP at Km", "inhibition": "2.2%"}
{"note": "For quick reference, copied from above:"}
{"SMILES": "Cc1cccc(O[C@H]2CCC[C@@H](C(C)CNCc3ccncc3)C2)c1 (relative stereo)", "target": "EGFR", "test": "kinase activity, kinome panel screening", "setting": "1 µM", "inhibition": "9%"}
{"SMILES": "C=CC(=O)Nc1cccc(-c2cnc3[nH]cc(C(=O)NC(C)(C)C)c3n2)c1", "target": "EGFR", "test": "kinase activity", "setting": "0.1 µM", "inhibition": "8% and 7%"}
